Measurements from different studies.
Compare with care: the assays were run in different laboratories. Values joined by “and” are separate records of one study, mostly repeats; a detail may differ.
Target: Serine/threonine-protein kinase TAO2 (TAOK2, Homo sapiens, UniProt Q9UL54)

Structure (SMILES) = C=CC(=O)N1CCc2ccc(-n3c(=O)ccc4cnc5ccc(-c6cnn(C)c6)cc5c43)cc21; test = KINOMEscan; conditions = 1 µM; how to read = relative to: DMSO control; quantity = remaining binding; result = 88%
Structure (SMILES) = Nc1ncc2c(n1)-c1c([nH]c3ccc(C4=CCOCC4)cc13)CCC2; test = binding, competition with immobilised ligand; conditions = 1 µM; quantity = remaining binding; result = 87%
Structure (SMILES) = C=CC(=O)Nc1cccc(-c2cnc3[nH]cc(C(=O)NC(C)(C)C)c3n2)c1; test = kinase activity; conditions = 0.1 µM; quantity = inhibition; result = 5% and 7%
Structure (SMILES) = C=CC(=O)N1CCCC(n2c(=O)c3ncccc3n(Cc3ccc(Oc4ccccc4)cc3)c2=O)C1 (centres unmarked); test = cell-free assay, competition with immobilised ligand; conditions = 1 µM; quantity = remaining binding; result = 99%
Structure (SMILES) = COc1c(Cl)cccc1Nc1c(-c2ccncc2C#C[C@@]2(C)CCCN2C(=O)/C=C/CN(C)C)[nH]c2c1C(=O)NCC2; test = binding, competition with immobilised ligand; conditions = 3 µM; quantity = remaining binding; result = 30%
Structure (SMILES) = CS(=O)(=O)Nc1cccc(-c2csc3cnc(Nc4ccc(N5CCN(CCCCCOc6cccc7c6C(=O)N(C6CCC(=O)NC6=O)C7=O)CC5)cc4)nc23)c1 (centres unmarked); test = probe labelling, inhibitor, KiNativ chemoproteomics; test system = MOLT-4; conditions = 1 µM; quantity = inhibition; result = -16.4%
Structure (SMILES) = CN1CC[C@@H](COc2cnc(C#N)cc2-c2ccn3nc(NC(=O)C4CC4)cc3c2)C1; test = enzyme activity, inhibitor; conditions = 1 µM; quantity = inhibition; result = 1%
Structure (SMILES) = Cc1cccc(O[C@H]2CCC[C@@H](C(C)CNCc3ccncc3)C2)c1 (relative stereo); test = enzyme activity, inhibitor; conditions = 1 µM; quantity = inhibition; result = -3%
Structure (SMILES) = CC(C)=CC1OC(C)(C)C2C=C3C(=O)C(Cl)=CC(O)C3C3C(O)C4OC4C(=O)C132 (centres unmarked); test = cell-free assay, competition with immobilised ligand; conditions = 10 µM; quantity = remaining binding; result = 66%
Structure (SMILES) = CCN1CCN(Cc2ccc(C(=O)Nc3ccc(C)c(NCc4cnc5[nH]ccc5c4OC)c3)cc2C(F)(F)F)CC1; test = binding, competition with immobilised ligand; conditions = 1 µM; quantity = remaining binding; result = 53%
Structure (SMILES) = Cc1cnc2nc1Nc1cccc(c1)COC/C=C/COCc1cc(ccc1OCCN1CCOCC1)N2; test = binding, competition with immobilised ligand; conditions = 0.1 µM; quantity = remaining binding; result = 100%
Structure (SMILES) = CNC1C[S+]2CC[S+]3CC[S+](C1)[Ru-4]321([N]=C=S)[n]2c3ccc(OC)cc3c3c4c(c5cc(F)c[n+]1c5c32)C(=O)NC4=O (centres unmarked); test = KinomeScan; conditions = 0.1 µM; how to read = relative to: untreated; quantity = remaining binding; result = 100%
Structure (SMILES) = Cc1[nH]nc2c1N=C(c1ccccc1Cl)c1cnc(N3CCOCC3)cc1N2; test = enzyme activity, inhibitor; conditions = 0.5 µM; quantity = inhibition; result = 29.3%
Structure (SMILES) = NC(=O)[C@@H](O)C[C@H]1CCc2sc3ncnc(O[C@H]4CC[C@H](N5CCOCC5)CC4)c3c21; test = radioisotope kinase; conditions = 10 µM; quantity = inhibition; result = 0%
Structure (SMILES) = COc1cc(Nc2nccc(-c3cnn4nc(OC)ccc34)n2)cc(C(F)(F)F)c1; test = binding, competition with immobilised ligand; conditions = 1 µM; quantity = remaining binding; result = 86%
Structure (SMILES) = C=CC(=O)N1Cc2nc(-c3cc(-c4cc(Cl)cnc4Cl)c(F)cc3F)n(-c3ccncn3)c2C1; test = kinome panel; conditions = 1 µM; quantity = inhibition; result = 3.9%
Structure (SMILES) = CNC(=O)C[C@H](Cc1ccc(C#N)cc1)NC(=O)c1cc(-c2ccc(CN[C@H](C)c3ccc(C)cc3)o2)ccc1Cl; test = enzyme activity, inhibitor; conditions = 1 µM; quantity = activity vs control; result = 105%

A few entries again:
Structure (SMILES) = Nc1ncc2c(n1)-c1c([nH]c3ccc(C4=CCOCC4)cc13)CCC2; test = binding, competition with immobilised ligand; conditions = 1 µM; quantity = remaining binding; result = 87%
